Published values from different studies.
Compare with care: the assays were run in different laboratories. ± gives the spread as reported.
TDP1: Tyrosyl-DNA phosphodiesterase 1 (TDP1, Homo sapiens, UniProt Q9NUW8)
UniProt Q9NUW8, sequence (whole entry, looked up): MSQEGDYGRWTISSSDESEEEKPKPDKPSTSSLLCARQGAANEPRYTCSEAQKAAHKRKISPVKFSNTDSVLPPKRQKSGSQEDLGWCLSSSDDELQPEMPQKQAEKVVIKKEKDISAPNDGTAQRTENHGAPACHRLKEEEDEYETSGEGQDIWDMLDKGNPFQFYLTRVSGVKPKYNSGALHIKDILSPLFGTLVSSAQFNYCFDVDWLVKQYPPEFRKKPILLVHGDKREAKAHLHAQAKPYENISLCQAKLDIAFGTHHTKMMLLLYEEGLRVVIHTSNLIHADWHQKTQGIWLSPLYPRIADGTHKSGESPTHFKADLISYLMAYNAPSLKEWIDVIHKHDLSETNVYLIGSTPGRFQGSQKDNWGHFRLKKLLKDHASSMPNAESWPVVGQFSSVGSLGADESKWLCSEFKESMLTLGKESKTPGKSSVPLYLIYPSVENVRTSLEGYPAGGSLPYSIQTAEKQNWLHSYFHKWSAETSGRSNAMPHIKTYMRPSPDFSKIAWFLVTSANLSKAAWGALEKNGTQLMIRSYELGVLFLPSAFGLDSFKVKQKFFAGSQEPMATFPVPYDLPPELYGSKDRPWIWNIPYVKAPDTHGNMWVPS

Structure (SMILES) | tested on | test | setting | quantity | result
Cc1ccc(C(C)C)cc1.Cc1ccc(C(C)C)cc1.Cc1ccc(C(C)C)cc1.Cc1ccc(C(C)C)cc1.O=S(=O)(O)C(F)(F)F.O=S(=O)(O)C(F)(F)F.O=S(=O)(O)C(F)(F)F.O=S(=O)(O)C(F)(F)F.c1ccc2c3c4ccccc4c(c2c1)-c1cn(nn1)-c1cc[n+](cc1)[Ru-]1[O]C2=[O+][Ru-]([O]C2=[O+]1)[n+]1ccc(cc1)-n1cc(nn1)-c1c2ccccc2c(c2ccccc12)-c1cn(nn1)-c1cc[n+](cc1)[Ru-]1[O]C2=[O+][Ru-]([O]C2=[O+]1)[n+]1ccc(cc1)-n1cc-3nn1 | AGS | cell growth or viability, MTT | 24 h | IC50 | 10.8 µM
CCOc1cncc(-c2ccc(NC(=O)C3(c4ccnc(NS(=O)(=O)C5CC5)n4)CCOCC3)nc2)n1 | UACC-257 | cell growth or viability, ATP luminescence | 72 h | IC50 | 0.072 µM
Cc1ccc([N+](=O)[O-])cc1S(=O)(=O)N(C)/N=C/c1cnc2ccc(Br)cn12 | UACC-257 | cell growth or viability |  | IC50 | 2.32 µM
O=C1CS/C(=N\N=C\c2cccc3cc4ccccc4nc23)N1c1ccc([N+](=O)[O-])cc1 | SK-BR-3 | cell growth or viability, MTT | 48 h | IC50 | > 50 µM
O=C(NCCOCCOCCOCCNC(=O)c1cc2ccccc2c2ccccc12)c1cc(C(=O)N2CCNCCNCCNCC2)c(O)c(C(=O)N2CCNCCNCCNCC2)c1 | 2C6 normal pancreas | cell viability, MTT | 24 h | IC50 | > 1000 µM
CNS(=O)(=O)Nc1nccc(Cc2c(C)c3ccc(Oc4ncccc4F)cc3oc2=O)c1F | HCC95 | cell viability | 7 days | IC50 | > 1 µM
CC(C)c1ccc(N(C)c2ccc3c(c2)OCC[C@H]3CNc2cnccc2C(=O)O)cc1 | HCC95 | cell growth or viability, ATP luminescence | 7 days | IC50 | 0.0044 µM
N#Cc1cccc(N2Cc3cnn(Cc4ccc(F)cc4)c3C2)c1 | HEK293 expressing GluA1 and GluA2 | glutamate excitotoxic cell death, CellTox Green | added: glutamate | IC50 | 0.291 µM
COc1cc(-c2cc(C(C)=O)n3ccccc23)c(OC)cc1CN(C)C | MV4-11 | cell growth or viability, ATP luminescence |  | IC50 | 4.35 µM
CCOC(=O)/C=C1\S/C(=N\N=C\c2cccc3cc4ccccc4nc23)N(c2ccc(F)cc2)C1=O | SK-BR-3 | cell growth or viability, MTT | 48 h | IC50 | > 50 µM
O=C(c1ccnc(N2Cc3cn(Cc4ccc(F)cc4)nc3C2)n1)N1CCOCC1 | HEK293 expressing GluA1 and GluA2 | glutamate excitotoxic cell death, CellTox Green | added: glutamate | IC50 | 0.044 µM
C=CC(=O)N1CCCC(n2c(=O)c3ncccc3n(Cc3ccc(Oc4ccccc4)cc3)c2=O)C1 (centres unmarked) | HBL1 | cell growth or viability, MTT | 72 h | IC50 | 1.7 µM
CO[C@@H](C[C@H]1C(C)=CC[C@@H]2[C@]3(C)C[C@H](O[C@@H]4O[C@@H](C)[C@H](OC(=O)c5cccc(O)c5)[C@@H](O[C@@H]5O[C@H](CO)[C@@H](O)[C@H](O)[C@H]5NC(C)=O)[C@H]4O)[C@@H](O)C(C)(C)[C@H]3CC[C@]21C)[C@H](N)C(=O)O | THP-29 | cell viability, CCK-8 | 72 h | IC50 | > 10 µM
Cc1ccc(C(C)C)cc1.Cc1ccc(C(C)C)cc1.Cc1ccc(C(C)C)cc1.Cc1ccc(C(C)C)cc1.O=S(=O)(O)C(F)(F)F.O=S(=O)(O)C(F)(F)F.O=S(=O)(O)C(F)(F)F.O=S(=O)(O)C(F)(F)F.c1ccc2c3c4ccccc4c(c2c1)-c1cn(nn1)-c1cc[n+](cc1)[Ru-]1[O]c2cc4c(cc2=[O+]1)[O][Ru-]([O+]=4)[n+]1ccc(cc1)-n1cc(nn1)-c1c2ccccc2c(c2ccccc12)-c1cn(nn1)-c1cc[n+](cc1)[Ru-]1[O]c2cc4c(cc2=[O+]1)[O][Ru-]([O+]=4)[n+]1ccc(cc1)-n1cc-3nn1 | AGS | cell growth or viability, MTT | 24 h | IC50 | 16.5 µM
COc1ccc(Cn2cc3c(n2)CN(c2cncc(C(=O)N(C)C)n2)C3)cc1 | HEK293 expressing GluA1 and GluA2 | glutamate excitotoxic cell death, CellTox Green | added: glutamate | IC50 | 0.054 µM
Cn1c(=O)n(C)c2cc([N+](=O)[O-])c(C=NOCc3ccc4nc(-c5ccccc5)c(Nc5ccc(C(=O)O)cc5)n4c3)cc21 | TDP1 | enzyme activity, inhibitor | 100 µM, unpurified compound | inhibition | 26.7%

Structure (SMILES) | tested on | test | setting | quantity | result
O=C(O)c1cncc(N2Cc3cnn(Cc4ccc(F)cc4)c3C2)n1 | HEK293 expressing GluA1 and GluA2 | glutamate excitotoxic cell death, CellTox Green | added: glutamate | IC50 | > 5 µM
O=C(O)c1ccc(Nc2c(-c3ccccc3)nc3ccc(CON=Cc4ccc(-n5cccn5)cc4)cn23)cc1 (mixture of isomers) | TDP1 | enzyme activity, inhibitor | 100 µM, unpurified compound | inhibition | 34%
CC(CCC(=O)OCc1cccc(CN(C(=O)OCc2ccc(B3OC(C)(C)C(C)(C)O3)cc2)[c-]2cccc2)c1)C1CCC2C3CCC4CC(O)CCC4(C)C3CC(O)C12C.[Fe+2].c1cc[cH-]c1 (centres unmarked) | BL2 | cell growth or viability, MTT | 48 h | IC50 | 14 µM
CN(C(=O)c1ccnc(N2Cc3cn(Cc4ccc(F)cc4)nc3C2)n1)C1CCCC1 | HEK293 expressing GluA1 and GluA2 | glutamate excitotoxic cell death, CellTox Green | added: glutamate | IC50 | 0.054 µM
COc1cc(S(=O)(=O)Oc2ccc3[nH]c(C)cc3c2F)cc(OC)c1OC | SUIT-2 | cell growth or viability, fluorescence | 72 h | IC50 | 0.0105 µM
O=C(c1cccc(N2Cc3cn(Cc4ccc(F)cc4)nc3C2)c1)N1CCCCC1 | HEK293 expressing GluA1 and GluA2 | glutamate excitotoxic cell death, CellTox Green | added: glutamate | IC50 | 0.079 µM
COc1cc(-c2cc(C(C)=O)n3ccccc23)c(OC)cc1CN1CC(O)C1 | MV4-11 | cell growth or viability, ATP luminescence |  | IC50 | 4.3 µM
CN(C)C(=O)c1cccc(N2Cc3cn(Cc4ccc(C#N)cc4)nc3C2)c1 | HEK293 expressing GluA1 and GluA2 | glutamate excitotoxic cell death, CellTox Green | added: glutamate | IC50 | 0.018 µM
O=c1c(O)c(-c2ccc(O)c(O)c2)oc2cc(O)cc([O][Ga+][O]c3cc(O)cc4oc(-c5ccc(O)c(O)c5)c(O)c(=O)c34)c12 | LO2 | cell viability, MTT |  | IC50 | > 200 µM
NCCOc1cc(NC(=O)c2cc(OCc3cn([C@H]4O[C@@H](CO)[C@H](O)[C@@H](O)[C@@H]4O)nn3)cc(C(=O)Nc3cc(OCCN)c4ccccc4n3)n2)nc2ccccc12 | HT-1080 | cell growth or viability, ATP luminescence | 72 h | IC50 | > 40 µM
CCN(C(=O)c1cc(F)ccc1Oc1nncnc1N1CCC2(C1)CN(C(CCCN(C)CCOC)C(C)C)C2)C(C)C (centres unmarked) | MV4-11 | QuantiGene, item: FLT3 mRNA |  | IC50 | 1.63 ± 0.128 µM
CN(C)C(=O)c1ccnc(N2Cc3cn(Cc4cccc(C(F)(F)F)c4)nc3C2)n1 | HEK293 expressing GluA1 and GluA2 | glutamate excitotoxic cell death, CellTox Green | added: glutamate | IC50 | 0.056 µM
NC(=O)c1ccc(-c2ccccc2Cl)c2c3c([nH]c12)CCC(N)C3 (centres unmarked) | K562/DOX, doxorubicin-resistant | cell growth, CellTiter-Glo | 96 h | IC50 | 0.0212 µM
Cc1sc2c(c1C)C(c1ccc(Cl)cc1)=N[C@@H](CC(=O)NCCCCCCCCC(=O)N1CCN(C(=O)c3cc(Cc4n[nH]c(=O)c5ccccc45)ccc3F)CC1)c1nnc(C)n1-2 | SU-DHL-5 | cell growth or viability, ATP luminescence | 72 h | IC50 | 0.0147 µM
Cn1ncc(-c2ccc3c(=O)[nH]nc(CN)c3c2)c1-c1c(F)c(Cl)cc(OC2CC2)c1C#N | SW900 | cell viability, inhibitor, CellTiter-Glo | 120 h, baseline-subtracted | IC50 | 0.15 µM
CN1CCC(N[C@H]2CCc3[nH]c4c(C(N)=O)ccc(-c5ccccc5Cl)c4c3C2)CC1 | SGC-7901 | cell growth or viability |  | IC50 | 0.997 µM
